Results of several laboratories.
Every numbered part comes from another study and shows a few of its results, in no order.

Series 1
Target: Prothrombin, mature alpha-thrombin (F2, Homo sapiens, UniProt P00734)
Method: aptamer microarray, sandwich
Molecule type: DNA with 2'F-ANA
Sample: in vitro
Concentration: 200 nM
Notes: whole 15-mer aptamer, many near background
Together with: Cy3 exosite-II aptamer, 400 nM
Reading: higher = stronger binding
Strand: GGTTGGTGTGGTTGG
Modification	mean fluorescence intensity [a.u.]
2'F-ANA at 2 3 6 8 9 11 12	918
2'F-ANA at 2 4 5 6 7 9 10 11 12 15	51.6
2'F-ANA at 1 6 9 10 11	52.5
2'F-ANA at 3 6 9 10 14 15	393
2'F-ANA at 2 3 4 5 6 7 9 11 12	141
2'F-ANA at 2 3 5 6 7 9 10 11 14	61.1
2'F-ANA at 1 3 6 8 9 11 13 14	78
2'F-ANA at 3 4 5 9 11	82.9
2'F-ANA at 2 4 7 10 14	64.8
2'F-ANA at 1 2 7 9 11	136
2'F-ANA at 2 3 5 8 10	54.8
2'F-ANA at 1 2 4 7 9 13 14	91.7
2'F-ANA at 1 2 4 5 13	44.4
2'F-ANA at 1 2 3 4 8 9 11 14	77.6
2'F-ANA at 3 4 5 6 7 8 9 10 11 13 14	50.7
2'F-ANA at 3 5 6 7 11 12	162
2'F-ANA at 2 5 6 7 9 10 11 14 15	48.5
2'F-ANA at 5 7 8 9 11 12 13 15	95.7
2'F-ANA at 2 3 4 5 6 7 8 9 11 12	157

Series 2
Target: RNA binding protein fox-1 homolog 2, RRM domain, GST-SBP tag (RBFOX2, Homo sapiens, UniProt O43251-10, residues 100-194)
Method: RNA Bind-n-Seq
Molecule type: RNA
Sample: in vitro
Concentration: 365 nM
Notes: natural RNA segment, single round, ends assumed
Relative to: no-protein control
Reading: higher = stronger binding
Constant ends, left off below: GGGAGUUCUACAGUCCGACGAUC … UGGAAUUCUCGGGUGCCAA
Target sequence (chain): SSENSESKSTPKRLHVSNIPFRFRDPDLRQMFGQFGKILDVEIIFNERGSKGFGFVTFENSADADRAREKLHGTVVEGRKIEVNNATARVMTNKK
Strand	RBNS enrichment (R)
GGGGUGUUUCUGCACUUGGCUAUGUGUGUCUUGUCUGAUGUCUGUCUUCUGUAGCUUUGCCUCUAUCAGGGCUGGAGUGGUGCAGCCCCUGGCAUCUCAGACAUGGUUCC	1.08
AUGUAUUUAUAUUCUAGCAUAGACUAAACUGAAUAAAAAUGCUGAUAACAGGACCUUUAGUAAGCAUACUUUAAUCAGUUUUUCUCCUUGAAUUAAUCUUUUCUCUUAAU	0.647
UGUGUUAAACCGCUUGAGUUACACCUUGUGACCCUUCUCCCAUAACAUGGUGUGAGGACGGACUGGGAGCCGGUACAGACUCCAGUGUUUACAGCUUUGCCAUGUCCCCA	0.339
CAUCCUGGGAGCGCCAUAGUUCAUCUUUCACCCACACGCCUUCCCUCCAUUCCUGAGCAGGACUAGUCCGUCCCAGAGGGCCACUGCUAGACUUCCUGUUAGGGGCAAUG	0.311
AGGUAGAGAGUGCUCCUGGUGGCCUGGCAGGUCUGGGCCCUUCUCUCCCUGCCCAGGUUGUCCCUGGAGGGCAGCCCUCACUCCCUUUGGGGGAGAGGCAGACAUUGCUG	0.308
AUUGUUUUUGAGACAAACAUUUUUAUAAUUCUAAUUUGGGUUAAUAAAGAUUUUAAAUAUUUCUUGGUUUACUUUUGUAAUUAUAUACACAACAAAUGUAUUAAUAACUA	0.801
UGAUUUGUACUUUCCUACAAUUUAGCACUUUAACUGACAAUGAUGGGGUUUAAACAUUUGACAGCCAACUCUAUUUUUAUACGACUACUAUACAAAGAAACUACAUAUAG	0.431
UGUCUGUGGGUUCGUCUGCCCAGGGCCUGGAGCCCAAGCCCUGUGUUCCUGGGGAAGCUGGGGACUUGGGAAGUGAUGGGUGUGUCAUGUUGCGUGUGUCUGUCUGUGAG	4.37
GCAGGUGACAGCACCCUGCUAGGAAGCUGUGUGUGUCCUGCCUUUCCUCCUGGAAUAUGUACGGAUGGAAGUCUUGGUUGAAGCAGGUUCCCCUGGGAAGUGCUCUCAGC	0.314
AUGCCUUUACAUAGAAGGGCUCUGAUUUGCACAAUUUGUUGAAAAAUCACAAACCCAUAGAAAAGUAAGUAGGCUAAGUUGGGGAGGCUCAAACCAUUAAGGGUUAAAAA	0.394
UAUGGCUAUGUUGCUUAAGAUUCUCAGGGAUAGACUUAUUUUUGUUAACUUCAUUCUUUCCUGCUGUUAGGAACAUAGGCCUAAAAUUGUCUCUUGAGUUUGCUCACCCU	0.891
UCUUCCAGUGCAAUGAAAUUCAUAUGGUGUCCCACCUUAUUUAAUGAUGGUACAAUUUAAAAUCUUAGUCAACUUCUGUAGAAAGUUUUCUCUAUGAAAGUAAAGCUGUU	0.414

Series 3
Target: Ras GTPase-activating protein-binding protein 1, C-terminal RGG region (G3BP1, Homo sapiens, UniProt Q13283)
UniProt Q13283, sequence (whole entry, looked up): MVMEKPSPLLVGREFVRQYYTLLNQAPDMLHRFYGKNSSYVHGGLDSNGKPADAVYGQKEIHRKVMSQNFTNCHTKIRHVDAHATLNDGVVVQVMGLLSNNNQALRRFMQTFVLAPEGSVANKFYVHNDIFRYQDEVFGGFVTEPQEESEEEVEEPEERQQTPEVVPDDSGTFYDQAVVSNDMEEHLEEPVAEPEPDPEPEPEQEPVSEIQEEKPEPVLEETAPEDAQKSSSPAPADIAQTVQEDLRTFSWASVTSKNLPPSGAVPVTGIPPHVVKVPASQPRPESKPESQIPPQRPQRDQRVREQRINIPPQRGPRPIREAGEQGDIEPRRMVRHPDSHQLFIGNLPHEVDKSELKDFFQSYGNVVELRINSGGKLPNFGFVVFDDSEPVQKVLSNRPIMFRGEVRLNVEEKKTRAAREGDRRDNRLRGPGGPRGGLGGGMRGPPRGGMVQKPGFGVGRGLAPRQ
Method: RNA Bind-n-Seq
Molecule type: RNA
Sample: in vitro
Concentration: 1 µM
Notes: whole 134-nt RNA, ends assumed
Together with: 150 mM KCl
Relative to: input library
Reading: higher = stronger binding
Constant ends, left off below: GGGAGUUCUACAGUCCGACGAUC … UGGAAUUCUCGGGUGUCAAGG
Strand	log2 enrichment
UCCUGUGCUACACAUCGUAUGUACCGAAUCAAAUUUUUAAAUUUUUUUAAAUUUUUAAAAAAGUAUUAUGUUACGCCGUUCGGAUCUGCA	-1.97
GUCCUGUGCUACACAUCGUAUGUACCGAAUCAAACCCCCAAACCCAAACCCCCCCAAAAAAGUAUUAUGUUACGCCGUUCGGAUCUGCAC	-0.235
UUAAGGAAGGACACUGAGUCAUGCACAAGUCCUUGCCUUCUUGGUGCCCCUCGGAAAGCACAAGACCCCUCCUCUGCUGGGUGUGAUCAA	-0.662
GUCCUGUGCUACACAUCGUAUGUACCGAAUCGGGUUUUUGGGAAAGGGUUUUUUUGGGAAAGUAUUAUGUUACGCCGUUCGGAUCUGCAC	-0.0541
CCUGUGCUACACAUCGUAUGUACCGAAUCGGAAAAAAGGGGAAAAAAGGGAAAAAAGGGGAAAGUAUUAUGUUACGCCGUUCGGAUCUGC	-1.43
UGUGAACUUGUAUGUGAAGAAUCUGGACGACUCCAUUGAUGACGACAAACUGAGGAAAGAGUUCUCUCCCUAUGGAGUAAUUACCAGUGC	-0.39
UCCUGUGCUACACAUCGUAUGUACCGAAUCGGGGUUUUUUUGGGGAAAAAGGGGUGGGGAAAGUAUUAUGUUACGCCGUUCGGAUCUGCA	1.29
UGGCCCUGGUGGCAUGCCGGGAGGAAGAGGUGGCCUCAUGGAUCGUGGUGGUCCCGGUGGAAUGUUCAGAGGUGGCCGUGGUGGAGACAG	1.87
UCCUGUGCUACACAUCGUAUGUACCGAAUCGGAAAAAAAGGAAAAAAAGGUUUUUUUGGAAAGUAUUAUGUUACGCCGUUCGGAUCUGCA	-1.28
AAGUCCUGUGCUACACAUCGUAUGUACCGAAUCGGGUUUUGGGGUUUUGGUUUUGGGAAAGUAUUAUGUUACGCCGUUCGGAUCUGCACU	-1.03
ACCAUGCAGGUGGGCAUCUUUGGGAAGUGGGGCAAGGGGGGGAUAGGGAGGGGGGUAACACUUUGGGAACAGGUGGUCCCAGGUCGUUUU	2.46
UGGCCCUGGUGGCAUGCGGGGAGGAAGAGGUGGCCUCAUGGAUCGUGGUGGUCCCGGUGGAAUGUUCAGAGGUGGCCGUGGGGGAGACAG	3.39
CACAGACAACACGCACCCACACAGACACAGAGGUAAGGGGUUGGGAUGGGGACAGGGUGCACAGCAGGGCGGGGUAGGACCCCAGCCCCU	0.00564
UGGCCCUGUUGGCAUGCGGGGAGGAAGAGGUGGCCUCAUGGAUCGUGGUGGUCCCGGUGGAAUGUUCAGAGGUGGCCGUGGUGGAGACAG	2.07

Series 4
Target: RING finger protein unkempt homolog, zinc fingers 1-6, GST-SBP tag (UNK, Homo sapiens, UniProt Q9C0B0, residues 30-357)
Method: RNA Bind-n-Seq
Molecule type: RNA
Sample: in vitro
Concentration: not given
Notes: RNA with constant flanks, human and mouse sites, ends assumed
Relative to: input RNA pool
Reading: higher = stronger binding
Constant ends, left off below: GGGAGUUCUACAGUCCGACGAUC … CAACAGAGGAUUGAGCAUCA
Target sequence (chain): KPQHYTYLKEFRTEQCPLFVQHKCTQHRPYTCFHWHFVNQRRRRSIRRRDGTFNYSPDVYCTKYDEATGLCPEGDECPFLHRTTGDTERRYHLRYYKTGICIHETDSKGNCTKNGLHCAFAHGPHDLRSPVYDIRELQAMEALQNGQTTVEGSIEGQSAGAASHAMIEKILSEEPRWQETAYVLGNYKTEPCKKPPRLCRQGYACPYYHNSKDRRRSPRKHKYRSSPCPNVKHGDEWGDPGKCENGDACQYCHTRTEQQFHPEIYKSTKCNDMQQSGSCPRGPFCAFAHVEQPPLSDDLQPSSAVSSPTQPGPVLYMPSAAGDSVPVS
Strand	bound/input enrichment [ratio]
CUUCAGAAGAGUAAUGGUGUACUUCCUGAAUUAUUUCAGUGUCAUGGUACUGCAGAUGAGUUAGUUCUUCAUUCUUGGGCAGAAGAGACAAACUCAAUGUUAAAAUCUCUAGGAGUGACC	0.172
UUCUUUGGCGGUGGAUUUCCUUCAGGUAGUGUACAUUCAUUUUCAAAUGGCCGGGCUGCUUACAGCCAUCAACAUCAGCACCGACACAGUGGGCAUGAAAGAGAAGAAGAAAGAGCGGAU	0.961
GAGUCUUCACCAACCACCUUACUUGCUACAAAGAAAAAUAUUGGACGAUUUCAUCCCUAUACUAGAUAUGAAAAUAUAACUUUCAAUUGCUGCAAUCACUGCCGGGGAGAACUGAUUGCC	2.2
GCUGGAGAGGAAAACUGAAAGAGGCUCUUAAAAAAAACUGUGAAGCUUACUACCUUUCUAUCUUUCAGGCCUUGGAUGACACCGAAAGGGGUUCAGGAGGUUUUGGUUCCACUGGAAAGA	0.0914
UGUGGAGCCAGGAAGUGUAACAUAGUCUGCACCCAGCCCCGAAGAAUCUCGGCGGUGAGCUUAGCCACCAGGGUGUGCGAGGAGCUGGGCUGUGAGAGUGGCCCUGGAGGAAGGAAUUCU	0.104
CUCCUGGCCCCCAUUAGAUUGCUUUCUUUCUCCAGCGCAGGGUCGUGAUGUGUCCGUCUAAAUAGCGUUUUGCAUUAUUUCUAGAUGAGUGCAACUGUCAAAGCAAUAUGGCUUCAGCGG	1.39
CUGUGAAAGUAUGGGAAGGUUCCCAUCCCCAUCCUUUAAGGUUCCCAAACCUGGAGUGCAUAGGUACUAAACCAAGCAGUGCAACUUGUAAUUAAGAAGCUGCAGUGUUUACAUGUUUCU	0.205
AUGAGCAUAAAUGAAGCUAAGGAAUAUGAAGUGUACGACAGUUCGCCUCAUCUUGAGUGCCUAGCAGAAUUUCAGGAGAAAGUCAGGAAGACCAACAAUUUUUCAGCUUUUCUUGCCAAU	0.0808
AAUGAACACUUCAAUGUGUUCCUCACUGCUAAGGACCUGAAUGCCUACAAGAAGCAAGGGAUAGCAUUGCUGAGCAGAGUGGGUGAGUCAGUCAAGCACGUCACCGGAGGCUAUAAGCUG	0.138
AUCAGGAUUUUUCUGGCACCAAGUUUAAUUCUUCUUCGUACUUCUGGUAGUGACAGAUCUGCAGGACAGAUUUAUCUGUUGAAUGCUCUUGGGCAGGAAAACCAUGUAAAACCUCUGGAA	0.129
AGCUUGAGCAGUUUGUUAAAGAAUGACAUUUCAGAUUCGGGAAUUGUGGGGCUUCAGCCCAUAGACUUUGUCGCCAGUGCUCAUCAGCAUCCAGUGAGUGAGAGGCAAGAGGAGAUUCCC	0.223

A few entries again (series 1):
Modification	mean fluorescence intensity [a.u.]
2'F-ANA at 3 6 9 10 14 15	393
2'F-ANA at 2 3 4 5 6 7 9 11 12	141
2'F-ANA at 2 3 5 6 7 9 10 11 14	61.1
2'F-ANA at 1 3 6 8 9 11 13 14	78
